Experimental data of several laboratories.
Compare with care: the assays were run in different laboratories.

Compound = CCOc1c([C@H](C)n2nc(C)c3c(N)ncnc32)cc(Cl)c(F)c1[C@@H]1CNC(=O)C1; test system = human B-cell malignancy patients; conditions = oral, all doses; quantity = patients with ΔQTcF 30-60 ms; result = 8.7%
Compound = COc1cc2nccc(Oc3ccc(NC(=O)c4cc5c(n(-c6ccccc6)c4=O)CCCC5=O)nc3)c2cc1OC; test system = human, relapsed/refractory AML; conditions = oral, dose not given, grade ≥3, any causality, all doses; quantity = patients with Klebsiella bacteraemia; result = 10%
Compound = CNC(=O)c1cc(Oc2ccc(NC(=O)Nc3cc(C(C)(C)C)nn3-c3ccc4ncccc4c3)c(F)c2)ccn1; assay = measured: worst grade 3; test system = human; conditions = oral, dose not given, cycles 1 and 2, Medium AUC(0-4 h) subgroup; quantity = patients with nervous system disorder AE; result = 7%
Compound = O=C(NO)c1ccc(CN(c2cnccn2)c2cnccn2)cc1; assay = measured: fatigue; test system = human; conditions = oral, dose not given, all dose cohorts, sample B patients; quantity = patients with adverse event; result = 30%
Compound = Cc1ccc(C(=O)N(CCCN)C(c2nc3snc(C)c3c(=O)n2Cc2ccccc2)C(C)C)cc1 (centres unmarked); test system = human patients; conditions = intravenous, 7 mg/day; quantity = patients with CTCAE grade ≥3 events; result = 50%
Compound = CNC(=O)c1ccc(-c2cnc3ncc(Cc4ccc5ncccc5c4)n3n2)cc1F; assay = measured: blood creatinine increased; test system = human, expansion cohort, gastric cancer; conditions = oral, 600 mg twice daily (RP2D), all grades, any causality, CTCAE v4.0; quantity = patients with adverse event; result = 0%
Compound = Cn1cnc2ccc(Nc3c(F)ccc(NS(=O)(=O)N4CC(F)C4)c3Cl)c(Cl)c2c1=O; assay = measured: blurred vision, grade 1-2; test system = human patients; conditions = dose not given, monotherapy trial; how to read = relative to: patients; quantity = patients with blurred vision; result = 3%
Compound = CCn1cc(C(=O)N2CCOCC2)c(=O)c2cc(NC3Cc4ccccc4C3)cnc21; test system = human, GAD, PTSD or social anxiety disorder; conditions = dose not given, TEAE Dizziness, pooled phase trials; quantity = patients with adverse event; result = 3.5%
Compound = Cc1cc(C)c(CNC(=O)c2cc(Cl)c3c(c2C)O[C@@](C)([C@H]2CC[C@H](N(C)C)CC2)O3)c(=O)[nH]1; assay = measured: Hypophosphatemia; test system = human patients; conditions = oral, 200 mg once daily, 1 day onset day 14; quantity = patients with grade ≥3 TEAE; result = 0%
Compound = O=C(Nc1ccc(OC(F)(F)Cl)cc1)c1cnc(N2CC[C@@H](O)C2)c(-c2ccn[nH]2)c1; assay = measured: Lipase increase, any grade; test system = human patients, dose-finding study; conditions = oral, sample C of sample B patients; quantity = patients with event; result = 47.5%
Compound = CNCc1ccc(-c2[nH]c3cc(F)cc4c3c2CCNC4=O)cc1; assay = measured: Vomiting; test system = human patients; conditions = oral, 600 mg twice daily, grade 3; quantity = patients with adverse event; result = 3.8%

A few entries again:
Compound = CNC(=O)c1cc(Oc2ccc(NC(=O)Nc3cc(C(C)(C)C)nn3-c3ccc4ncccc4c3)c(F)c2)ccn1; assay = measured: worst grade 3; test system = human; conditions = oral, dose not given, cycles 1 and 2, Medium AUC(0-4 h) subgroup; quantity = patients with nervous system disorder AE; result = 7%
